Published values pooled from the literature.
Each numbered part is a random draw from the data of one study; scales do not carry over between parts. Positions count from the first letter of the parent shown.

Study 1 — technique: protein binding microarray; form: double-stranded DNA, one strand shown; medium: in vitro; concentration: not given; relative to: not given; direction: higher = stronger binding; quantity: E-score
Target: Histone acetyltransferase KAT6A, both winged helices, GST fusion (KAT6A, Homo sapiens, UniProt Q92794, residues 1-181)
Notes: 8-mer, flanks averaged, mean of 2 arrays, mostly near background
Residues (chain): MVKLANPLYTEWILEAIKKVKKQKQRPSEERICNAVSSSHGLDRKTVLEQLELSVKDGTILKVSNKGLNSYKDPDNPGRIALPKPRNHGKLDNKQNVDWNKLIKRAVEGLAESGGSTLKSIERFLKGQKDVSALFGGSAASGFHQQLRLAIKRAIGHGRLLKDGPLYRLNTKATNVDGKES
CGCGAGCC: 0.304
CAAATCAA: -0.151
ATCGCTGG: 0.07
CAAGTTCA: -0.106
GACATACC: 0.0222
ATACAGAC: -0.114
AGACTAAC: -0.0586
AAGCCCGT: 0.203
ACTCGCCT: 0.068
GCGGTTCC: 0.198
AATAAGTA: -0.181
ATATTCCA: -0.198
AAATCTCA: -0.136
CCTTAGTA: -0.0629
TGGAGGAA: -0.159
ACCCGTGA: 0.21
CGGGCTCC: 0.0982
GGGGTGTA: 0.00129
ACTCTATC: -0.126
CATTAGGC: -0.105
CACTCACG: 0.0842

Study 2 — technique: RNA Bind-n-Seq; form: RNA; medium: in vitro; concentration: 365 nM; relative to: no-protein control; direction: higher = stronger binding; quantity: RBNS enrichment (R)
Target: RNA binding protein fox-1 homolog 2, RRM domain, GST-SBP tag (RBFOX2, Homo sapiens, UniProt O43251-10, residues 100-194)
Notes: natural RNA segment, single round, ends assumed
Construct (chain): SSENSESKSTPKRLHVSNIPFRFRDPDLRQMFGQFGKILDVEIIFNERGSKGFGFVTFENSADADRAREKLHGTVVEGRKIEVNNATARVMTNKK
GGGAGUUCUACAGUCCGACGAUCAAUGGGCAAUCUACUGAACUUCCAGAUCAAUGCUUUGUUGGAAAGUGAUGAAUUUAAGAGAGUUUUAACAUGUCAAAUUUGAAGCCAAUUCAGUAUCCUUAUUUGUUCCAUGGAAUUCUCGGGUGCCAA: 0.675
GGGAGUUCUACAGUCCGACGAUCUAAACAUACAUAAUACAAUGUAACUCCACUGUUCUCCUGAAUAUUUUUUGCUCUAAUCUCUCUGCCGAAAGUCAAAGUGAUGGGAGAAUUGGUAUACUGGUAUGACUACGUGGAAUUCUCGGGUGCCAA: 0.281
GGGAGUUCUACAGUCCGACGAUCUGGGCAGGGACUGCCUCCUCCCGGAAUUCCUAAGAUCCGCCCAGCUGCCACCAUUUUCAUUGCUUUCCCCAGCAGCAUGAUGGGAACCCAAGCUGAGGGAUACAGGUCCUUGGAAUUCUCGGGUGCCAA: 2.68
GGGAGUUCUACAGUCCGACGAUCCAACAAAUAUCUUGUGUUGUCCUUUUGUCUUCUCUGUCUCAGACUUUUGUACAUCUGGCUUAUUUUAAUGUGAUGAUGUAAUUGACGGUUUUUUAUUAUUGUGGUAGGCCUGGAAUUCUCGGGUGCCAA: 0.796
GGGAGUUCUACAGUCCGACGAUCCAACCAAAAGACUAGAUUGUGCCUAAGCACUCCUUCUGGAACAACCGAAUGAUCAGCUGCAUAGCAAAGGACUGUGCCGCUGGCAUAUUGAUCUCAGAUAAAAACUUGUGUGGAAUUCUCGGGUGCCAA: 0.339
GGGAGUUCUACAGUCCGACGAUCUUCGUUUAGGAUUAGUUGAGUUCCAGCUGGGUUUUGGGAGAAAGGAGAUGCUACCAAGUCUUGGAUGUUAGGGCGAGACCCUGCAAGUUGAGUAUUAGAGAGCUUGUCUUUGGAAUUCUCGGGUGCCAA: 0.564
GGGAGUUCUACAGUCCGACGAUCGAACGUAUCAAUACAGUUUAUAAAGCCAAGAAUUGCUAUGAUUUAAGACUAAGAUCUGUCUUUUUGGUGACUAACCCUUCAAUUCUUUCAACUCCUGUUAAUACCCAUAAUGGAAUUCUCGGGUGCCAA: 0.39
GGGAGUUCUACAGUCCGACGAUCUCCCUAUGUUUUCCCCCUUUGAAAAUUUUUCUCAGUUAAAUUAAGCUACUGAUUUGAAUUUGUUUUUAUCUUGUCCUAAAGUCUUUGUUCUUGAAAUGCAAGGUAUUUGGUGGAAUUCUCGGGUGCCAA: 0.468

Study 3 — target: CCND1, cyclin fold, Cln2 fusion (human); technique: yeast growth competition, sequencing; medium: yeast; notes: weak parent motif; relative to: not given; direction: higher = stronger binding; quantity: normalised enrichment score
Starting sequence: MASTL docking peptide (human); PMIAKNLMCELDE
PSIAKNLMCELDE [M2S]: 0.499
PMIAKNLMMELDE [C9M]: -0.106
PMIHKNLMCELDE [A4H]: -0.0392
PIIAKNLMCELDE [M2I]: 0.358
PMIAKALMCELDE [N6A]: -0.0667
PKIAKNLMCELDE [M2K]: 0.302
PMIAKNLMCELEE [D12E]: 0.126
PMIAKNLMCELGE [D12G]: 0.171
PMIAKNLMCHLDE [E10H]: 0.022
PMYAKNLMCELDE [I3Y]: 0.541
PMIAKKLMCELDE [N6K]: 0.392
PMIAKNTMCELDE [L7T]: -0.272
PMIAKNLMCALDE [E10A]: -0.14
PMIALNLMCELDE [K5L]: 0.695
PMIAKNLMCEGDE [L11G]: 0.163
PMIAKNLMCEKDE [L11K]: 0.000614
PMIAKNLPCELDE [M8P]: 0.101
PMIAKNPMCELDE [L7P]: -0.0593
PMIDKNLMCELDE [A4D]: -0.115
PMIAKNLACELDE [M8A]: 0.193
PMIIKNLMCELDE [A4I]: 0.256
PMIAKMLMCELDE [N6M]: 0.299
PEIAKNLMCELDE [M2E]: 0.353
PMIAKNLMCELWE [D12W]: -0.115
PMIAKFLMCELDE [N6F]: -0.0554

Study 4 — target: NFE2, bZIP domain (human); technique: DHFR protein complementation; medium: yeast; relative to: wild-type JUN-FOS pair; direction: higher = stronger binding; quantity: binding fitness
Notes: single substitutions, most at no-binding floor
Starting sequence: JUN, bZIP domain (human); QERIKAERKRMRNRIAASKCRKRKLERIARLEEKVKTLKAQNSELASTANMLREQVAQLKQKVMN; partner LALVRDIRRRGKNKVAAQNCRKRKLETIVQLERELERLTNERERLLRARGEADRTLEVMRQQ
R53A: -1.17 natural log
E32W: -1.56 natural log
T37Y: -1.56 natural log
A57Q: -1.49 natural log
I28Q: -1.22 natural log
M51P: -1.5 natural log
A40H: -1.41 natural log
K39A: -1.3 natural log
M51S: -1.36 natural log
K39V: -1.47 natural log
A57T: -1.56 natural log
E32S: -1.27 natural log
S43A: -1.27 natural log
A46W: -1.44 natural log
L38Y: -1.53 natural log
V56L: -1.39 natural log
E33N: -1.47 natural log
M51N: -1.52 natural log
E32Q: -1.47 natural log

Study 5 — technique: protein-binding microarray; form: double-stranded DNA, one strand shown; medium: in vitro; concentration: 940 nM top; notes: 60-bp whole probe; added: salmon DNA 0.4 mg/ml; relative to: random background probes; direction: higher = stronger binding; quantity: fitted relative affinity; shared flanks, not repeated: GCCTAGCAC … GTCTTGATTCGCTTGACGCTGCTG
Target: Interferon regulatory factor 5, full length, phosphomimetic (IRF5, Homo sapiens, UniProt Q13568-2, residues 1-514, S451D/S453D/S456D/S462D)
GACGGTTTCGGTTTTCGGGACGTGCTA: 12.6 z-score
TCAATTTCCACTTTGACACTGTGCTAG: 0.745 z-score
TTAGGTTTCGACTATCGTTTAGTGCTA: 9.66 z-score
TACGGTTTCCTTTCCCTGACGTGCTAG: 1.82 z-score
GACGGACTGGGTATCGAGACGTGCTAG: 0.739 z-score
TTAGGACTGGGTATCGGTTAGTGCTAG: 3.31 z-score
CACCAGCGAGGGCCCGGGAGGTGCTAG: -0.946 z-score
GGACAGTAATGGAGGTATAAGTGCTAG: -0.425 z-score
TTAGATCTCAGTCTGGATTAGTGCTAG: 0.146 z-score
TCTCTTTTATTTTTTTTATTGTGCTAG: 4.31 z-score
TCAACTCTCTGCTTGTGACTGTGCTAG: 1.01 z-score
TTAGGCCTCGGTCTCGGTTAGTGCTAG: 1.65 z-score
GACGGGCTCGGTCTCGGGACGTGCTAG: 0.115 z-score
TTAGGTTTCCTTCTCCTGTAGTGCTAG: 2.35 z-score
GACGGTTTCGACTATCGGGATGTGCTA: 7.91 z-score
GACGGTTTCATTATCCTGACGTGCTAG: 5.84 z-score
TTAGGTCTCGGTCCCGGTTAGTGCTAG: 3.7 z-score
AGGGGACTGACTCTTCAGCACGTGCTA: 0.186 z-score
TTAGGTATACTTCTCCTTTAGTGCTAG: 0.46 z-score

Mixed results
PhoQ, residues 284 288 289 292 302 303 ALSMDL — fold induction (PhoP, residues 12 14 15 18 19 QWHVF (Escherichia coli, UniProt P23836); Sort-seq, item: YFP reporter; E. coli; PhoQ-PhoP variant library, added: 10 µM Mg2+; relative to: high Mg2+ state, higher = stronger signaling): 6.61

Excerpt of the above (study 3):
PMIAKNLMCELEE [D12E]: 0.126
PMIAKNLMCELGE [D12G]: 0.171
PMIAKNLMCHLDE [E10H]: 0.022
PMYAKNLMCELDE [I3Y]: 0.541
PMIAKKLMCELDE [N6K]: 0.392
PMIAKNTMCELDE [L7T]: -0.272
PMIAKNLMCALDE [E10A]: -0.14
PMIALNLMCELDE [K5L]: 0.695
PMIAKNLMCEGDE [L11G]: 0.163
PMIAKNLMCEKDE [L11K]: 0.000614
PMIAKNLPCELDE [M8P]: 0.101
PMIAKNPMCELDE [L7P]: -0.0593
